Measurements of several laboratories.
Every numbered part comes from another study and shows a few of its results, in no order.
Chain of UniProt P07949 (whole entry, unmodified, looked up): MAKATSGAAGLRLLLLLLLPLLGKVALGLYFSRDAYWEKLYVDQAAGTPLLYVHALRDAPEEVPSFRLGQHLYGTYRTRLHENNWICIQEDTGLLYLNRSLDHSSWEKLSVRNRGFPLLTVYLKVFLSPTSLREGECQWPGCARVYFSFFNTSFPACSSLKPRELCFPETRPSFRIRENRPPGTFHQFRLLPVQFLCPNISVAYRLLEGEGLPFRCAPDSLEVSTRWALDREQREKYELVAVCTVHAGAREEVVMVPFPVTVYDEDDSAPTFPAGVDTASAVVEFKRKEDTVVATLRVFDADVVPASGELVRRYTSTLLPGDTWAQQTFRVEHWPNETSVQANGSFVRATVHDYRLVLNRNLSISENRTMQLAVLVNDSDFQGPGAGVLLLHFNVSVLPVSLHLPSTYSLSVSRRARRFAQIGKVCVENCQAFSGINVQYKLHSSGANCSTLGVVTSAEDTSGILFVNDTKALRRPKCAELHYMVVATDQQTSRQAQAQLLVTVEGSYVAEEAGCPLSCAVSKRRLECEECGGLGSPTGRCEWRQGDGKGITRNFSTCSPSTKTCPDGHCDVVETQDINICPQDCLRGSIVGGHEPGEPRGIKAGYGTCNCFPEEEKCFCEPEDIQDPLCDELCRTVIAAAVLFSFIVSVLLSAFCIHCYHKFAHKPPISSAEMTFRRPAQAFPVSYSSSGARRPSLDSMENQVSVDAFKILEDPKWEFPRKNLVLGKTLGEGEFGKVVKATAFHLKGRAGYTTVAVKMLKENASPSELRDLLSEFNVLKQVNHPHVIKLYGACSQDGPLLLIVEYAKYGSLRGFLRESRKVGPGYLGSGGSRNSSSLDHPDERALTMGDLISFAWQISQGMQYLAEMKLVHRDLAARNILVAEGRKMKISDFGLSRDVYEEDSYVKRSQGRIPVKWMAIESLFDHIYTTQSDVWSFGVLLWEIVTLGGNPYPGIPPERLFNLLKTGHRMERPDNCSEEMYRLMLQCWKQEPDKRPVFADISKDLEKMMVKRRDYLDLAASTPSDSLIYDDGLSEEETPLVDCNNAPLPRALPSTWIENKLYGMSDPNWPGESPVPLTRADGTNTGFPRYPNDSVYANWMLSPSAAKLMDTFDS
Chain of UniProt P29275 (whole entry, looked up): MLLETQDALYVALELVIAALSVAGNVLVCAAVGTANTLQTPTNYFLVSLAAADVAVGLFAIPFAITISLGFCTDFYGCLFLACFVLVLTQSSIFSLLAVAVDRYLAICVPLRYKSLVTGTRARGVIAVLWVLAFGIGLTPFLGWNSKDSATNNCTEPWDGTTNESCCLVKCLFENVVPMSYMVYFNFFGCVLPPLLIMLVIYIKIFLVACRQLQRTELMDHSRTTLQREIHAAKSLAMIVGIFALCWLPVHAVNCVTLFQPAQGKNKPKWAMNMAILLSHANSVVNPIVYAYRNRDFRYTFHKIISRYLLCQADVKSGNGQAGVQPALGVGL
Chain of UniProt Q09013 (whole entry, looked up): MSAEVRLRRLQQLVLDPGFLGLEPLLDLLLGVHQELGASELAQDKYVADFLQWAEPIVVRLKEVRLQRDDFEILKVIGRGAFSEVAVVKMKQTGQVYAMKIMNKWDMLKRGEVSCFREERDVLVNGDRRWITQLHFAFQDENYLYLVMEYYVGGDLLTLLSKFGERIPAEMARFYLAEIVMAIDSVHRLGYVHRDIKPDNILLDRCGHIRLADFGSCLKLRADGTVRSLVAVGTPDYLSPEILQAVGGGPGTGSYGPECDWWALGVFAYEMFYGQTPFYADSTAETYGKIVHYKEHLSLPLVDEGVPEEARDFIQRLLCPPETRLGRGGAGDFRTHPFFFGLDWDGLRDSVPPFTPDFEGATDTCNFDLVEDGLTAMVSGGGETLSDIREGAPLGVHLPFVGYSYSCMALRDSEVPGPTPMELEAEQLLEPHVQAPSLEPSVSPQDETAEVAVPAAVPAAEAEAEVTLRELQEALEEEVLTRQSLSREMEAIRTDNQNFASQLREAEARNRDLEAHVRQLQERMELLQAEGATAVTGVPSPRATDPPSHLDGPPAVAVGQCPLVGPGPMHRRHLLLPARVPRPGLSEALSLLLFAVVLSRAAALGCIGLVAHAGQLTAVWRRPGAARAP
Chain of UniProt O43353 (whole entry, looked up): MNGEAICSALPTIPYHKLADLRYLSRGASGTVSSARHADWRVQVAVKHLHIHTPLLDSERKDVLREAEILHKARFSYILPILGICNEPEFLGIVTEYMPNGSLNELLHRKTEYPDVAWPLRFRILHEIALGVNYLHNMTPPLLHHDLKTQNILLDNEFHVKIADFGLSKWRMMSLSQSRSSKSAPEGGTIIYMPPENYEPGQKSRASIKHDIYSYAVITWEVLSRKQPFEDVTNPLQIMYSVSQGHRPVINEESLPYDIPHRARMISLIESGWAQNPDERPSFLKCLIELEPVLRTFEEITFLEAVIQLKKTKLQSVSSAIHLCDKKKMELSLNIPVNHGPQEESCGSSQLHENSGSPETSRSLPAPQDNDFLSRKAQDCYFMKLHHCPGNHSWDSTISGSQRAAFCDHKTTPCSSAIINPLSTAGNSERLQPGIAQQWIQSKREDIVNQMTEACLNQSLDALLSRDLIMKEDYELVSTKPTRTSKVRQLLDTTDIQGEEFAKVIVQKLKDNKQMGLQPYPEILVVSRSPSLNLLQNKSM
Chain of UniProt Q96J92 (whole entry, looked up): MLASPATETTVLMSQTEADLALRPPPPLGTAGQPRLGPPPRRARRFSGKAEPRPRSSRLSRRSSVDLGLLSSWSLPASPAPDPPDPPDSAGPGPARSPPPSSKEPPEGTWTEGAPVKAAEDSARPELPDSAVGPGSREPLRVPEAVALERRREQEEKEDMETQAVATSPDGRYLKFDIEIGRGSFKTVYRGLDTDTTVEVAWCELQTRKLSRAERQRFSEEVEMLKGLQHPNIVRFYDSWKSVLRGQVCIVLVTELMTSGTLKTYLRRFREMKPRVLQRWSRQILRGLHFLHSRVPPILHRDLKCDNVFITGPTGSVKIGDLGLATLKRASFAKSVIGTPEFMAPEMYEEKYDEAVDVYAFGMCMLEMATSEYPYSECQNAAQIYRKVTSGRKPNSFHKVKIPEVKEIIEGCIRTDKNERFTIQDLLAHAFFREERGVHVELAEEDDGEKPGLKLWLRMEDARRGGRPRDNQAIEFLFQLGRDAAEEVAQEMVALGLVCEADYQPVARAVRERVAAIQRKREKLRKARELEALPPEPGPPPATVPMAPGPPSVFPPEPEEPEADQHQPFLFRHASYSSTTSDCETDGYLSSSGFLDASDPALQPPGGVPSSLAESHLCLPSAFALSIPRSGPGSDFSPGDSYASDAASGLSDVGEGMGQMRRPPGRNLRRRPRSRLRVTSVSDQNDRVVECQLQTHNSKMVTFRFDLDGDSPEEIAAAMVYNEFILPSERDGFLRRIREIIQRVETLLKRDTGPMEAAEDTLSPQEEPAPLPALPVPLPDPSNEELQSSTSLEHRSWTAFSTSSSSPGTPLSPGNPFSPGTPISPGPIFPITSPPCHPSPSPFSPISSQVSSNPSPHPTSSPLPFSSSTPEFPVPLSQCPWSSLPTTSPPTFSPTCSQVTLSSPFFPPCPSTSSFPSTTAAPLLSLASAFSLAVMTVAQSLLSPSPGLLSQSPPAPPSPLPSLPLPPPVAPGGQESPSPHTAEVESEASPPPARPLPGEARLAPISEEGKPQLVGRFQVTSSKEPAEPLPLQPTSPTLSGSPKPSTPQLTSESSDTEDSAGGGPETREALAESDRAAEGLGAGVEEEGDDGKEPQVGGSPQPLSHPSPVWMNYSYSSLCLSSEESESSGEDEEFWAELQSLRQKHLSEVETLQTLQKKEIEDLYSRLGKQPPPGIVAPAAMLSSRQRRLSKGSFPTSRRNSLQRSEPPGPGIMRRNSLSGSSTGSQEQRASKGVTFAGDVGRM
Chain of UniProt P46095 (whole entry, looked up): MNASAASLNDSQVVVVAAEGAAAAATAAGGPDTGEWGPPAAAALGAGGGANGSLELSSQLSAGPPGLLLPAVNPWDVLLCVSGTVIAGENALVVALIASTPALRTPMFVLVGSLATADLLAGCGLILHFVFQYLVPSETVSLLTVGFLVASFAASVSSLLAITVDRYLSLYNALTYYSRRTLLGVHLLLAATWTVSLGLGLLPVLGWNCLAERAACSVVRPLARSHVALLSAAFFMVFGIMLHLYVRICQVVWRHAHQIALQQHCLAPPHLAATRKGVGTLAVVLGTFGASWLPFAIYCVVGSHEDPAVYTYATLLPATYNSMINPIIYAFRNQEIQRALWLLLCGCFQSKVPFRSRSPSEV
Chain of UniProt Q9P1W9 (whole entry, looked up): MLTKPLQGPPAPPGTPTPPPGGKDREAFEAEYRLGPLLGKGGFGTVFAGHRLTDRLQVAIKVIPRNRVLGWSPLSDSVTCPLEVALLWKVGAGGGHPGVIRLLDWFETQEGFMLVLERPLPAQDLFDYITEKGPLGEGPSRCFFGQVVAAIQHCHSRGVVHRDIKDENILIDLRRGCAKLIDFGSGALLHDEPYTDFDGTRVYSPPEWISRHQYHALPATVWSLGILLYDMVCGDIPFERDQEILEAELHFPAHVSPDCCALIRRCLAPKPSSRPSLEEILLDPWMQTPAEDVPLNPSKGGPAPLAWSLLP

Study 1
Cell line: HaCaT
Tested at: 100 µM
Time: 36 h
| Compound | viability |
| --- | --- |
| OC(CCN1CCCCC1)(c1ccccc1)C1C[C@@H]2C=C[C@H]1C2 (some centres unmarked) | 5.21% |
| CN(CCOc1ccc(CC2SC(=O)NC2=O)cc1)c1ccccn1 (centres unmarked) | 49.8% |
| COc1cc2c(cc1OC)[C@@H]1Cc3ccc(OC)c(OC)c3CN1CC2 | 82.9% |
| COc1ccc2c(c1)c(CC(=O)O)c(C)n2C(=O)c1ccc(Cl)cc1 | 76.8% |
| COc1cc2ccc(=O)oc2cc1O | 96.3% |
| CC1(C)S[C@@H]2[C@H](NC(=O)[C@H](N)c3ccccc3)C(=O)N2[C@H]1C(=O)OCOC(=O)[C@@H]1N2C(=O)C[C@H]2S(=O)(=O)C1(C)C | 98.3% |
| O=S(=O)(O)Oc1ccc(C(c2ccc(OS(=O)(=O)O)cc2)c2ccccn2)cc1 | 99.1% |
| Nc1cccc2c1C(=O)N(C1CCC(=O)NC1=O)C2=O (centres unmarked) | 92.2% |
| Cc1cn[nH]c1 | 90.4% |
| CS(=O)(=O)c1ccc(C2=C(c3ccccc3)C(=O)OC2)cc1 | 110% |
| CC(C)N1CCN(c2ccc(OC[C@H]3CO[C@](Cn4cncn4)(c4ccc(Cl)cc4Cl)O3)cc2)CC1 (racemic) | 4.9% |
| CN1CCN(c2c(F)cc3c(=O)c(C(=O)O)cn4c3c2OCN4C)CC1 | 98.8% |

Study 2
Target: Calcium/calmodulin-dependent protein kinase type II subunit alpha (CAMK2A, Homo sapiens, UniProt Q9UQM7)
Chain of UniProt Q9UQM7 (whole entry, looked up): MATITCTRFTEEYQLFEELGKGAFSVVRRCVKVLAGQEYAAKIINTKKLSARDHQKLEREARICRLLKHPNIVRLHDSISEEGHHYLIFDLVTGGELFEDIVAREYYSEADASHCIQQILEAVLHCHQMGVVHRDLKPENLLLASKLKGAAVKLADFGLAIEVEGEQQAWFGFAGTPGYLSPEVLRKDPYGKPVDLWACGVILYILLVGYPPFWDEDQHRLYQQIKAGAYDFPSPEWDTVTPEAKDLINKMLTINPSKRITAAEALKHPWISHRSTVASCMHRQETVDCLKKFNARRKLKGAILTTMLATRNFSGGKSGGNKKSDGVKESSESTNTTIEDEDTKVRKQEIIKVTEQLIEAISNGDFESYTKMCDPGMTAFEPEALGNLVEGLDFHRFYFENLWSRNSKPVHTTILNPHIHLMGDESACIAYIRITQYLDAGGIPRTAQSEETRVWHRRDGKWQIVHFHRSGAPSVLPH
Observed: enzyme activity
Mode: inhibitor
Tested at: 10 µM
| Structure (SMILES) | inhibition [%] |
| --- | --- |
| NC(=O)C(c1ccccc1)(c1ccccc1)C1CCN(CCc2ccc3c(c2)CCO3)C1 (racemic) | 13 |
| CC(C)=CCOc1ccc(/C=C/C(=O)c2ccc(OCC=C(C)C)cc2OCC(=O)O)cc1 | 1 |
| Cc1cc(S(=O)(=O)O)c2c(C)ccc(C(C)C)cc1-2 | -2 |
| Cn1c(=O)[nH]c2[nH]cnc2c1=O | 14 |
| COc1c(C)c2c(c(O)c1C/C=C(\C)CCC(=O)OCCN1CCOCC1)C(=O)OC2 | -20 |
| COc1c(O)c(C)cc2c1C(=O)c1c(O)cccc1C2=O | 2 |
| CCOC(=O)c1c(C)cc(O)cc1O | -8 |
| CCCCS(=O)(=O)N[C@@H](Cc1ccc(OCCCCC2CCNCC2)cc1)C(=O)O | -10 |
| CC(=O)OCC(=O)[C@H]1CC[C@H]2[C@@H]3CCC4=CC(=O)CC[C@]4(C)[C@H]3CC[C@]12C | -11 |
| CN(C(=O)C(Cl)Cl)c1ccc(OC(=O)c2ccco2)cc1 | -8 |
| CC1(C)CC[C@]2(C(=O)O)CC[C@]3(C)C(=CC[C@@H]4[C@@]5(C)C[C@@H](O)[C@H](O)[C@@](C)(CO)[C@@H]5CC[C@]43C)[C@@H]2C1 | -1 |
| O=c1[nH]c2ccccc2n1CCN1CCN(c2cccc(C(F)(F)F)c2)CC1 | 0 |

Study 3
SMILES: NC(N)=NC(=O)c1nc(Cl)c(N2CCCCCC2)nc1N
Observed: β-arrestin recruitment
Mode: agonist
Method: PRESTO-Tango
Tested at: 10 µM
Baseline: untreated
| target | fold over basal |
| --- | --- |
| LHCGR (Homo sapiens, UniProt P22888) | 0.5 fold |
| LTB4R (Homo sapiens, UniProt Q15722) | 0.87 |
| Lysophosphatidic acid receptor 6 (Homo sapiens, UniProt P43657) | 1.43 |
| CRHR1 (Homo sapiens, UniProt P34998) | 1.25 |
| HTR7 (Homo sapiens, UniProt P34969) | 1.14 |
| GPR84 (Homo sapiens, UniProt Q9NQS5) | 0.88 |
| G-protein coupled receptor 6 (Homo sapiens, UniProt P46095) | 1.38 |
| Probable G-protein coupled receptor 63 (GPR63, Homo sapiens, UniProt Q9BZJ6) | 0.66 |
| CCR4 (Homo sapiens, UniProt P51679) | 1.53 |
| GPR18 (Homo sapiens, UniProt Q14330) | 0.64 |
| ADORA2B (Homo sapiens, UniProt P29275) | 1.02 |
| NTSR2 (Homo sapiens, UniProt O95665) | 0.8 |
| MRGPRX1 (Homo sapiens, UniProt Q96LB2) | 1.05 |
| ADGRF1 (Homo sapiens, UniProt Q5T601) | 0.9 |
| Probable G-protein coupled receptor 27 (Homo sapiens, UniProt Q9NS67) | 0.97 |
| MC1R (Homo sapiens, UniProt Q01726) | 1.77 |

Study 4
SMILES: Cc1c(C(=O)O)cc(-c2ccc(C3CCNCC3)cc2)c2ccc(-c3ccc(C(F)(F)F)cc3)cc12
Method: competition with immobilised ligand
Tested at: 1 µM
| target | observed | remaining binding |
| --- | --- | --- |
| PAK4 (Homo sapiens, UniProt O96013) | cell-free assay | 100% |
| TIE1 (Homo sapiens, UniProt P35590) | cell-free assay | 100% |
| COQ8B (Homo sapiens, UniProt Q96D53) | cell-free assay | 100% |
| FLT3 (Homo sapiens, UniProt P36888, D835V/ITD) | binding | 95% |
| PIM2 (Homo sapiens, UniProt Q9P1W9) | binding | 100% |
| STK35 (Homo sapiens, UniProt Q8TDR2) | binding | 100% |
| EPHB4 (Homo sapiens, UniProt P54760) | cell-free assay | 100% |
| CDK4 (Homo sapiens, UniProt P11802) | binding | 100% |
| PRKAA2 (Homo sapiens, UniProt P54646) | cell-free assay | 100% |
| RIPK2 (Homo sapiens, UniProt O43353) | binding | 100% |
| WNK4 (Homo sapiens, UniProt Q96J92) | binding | 100% |
| RET (Homo sapiens, UniProt P07949) | cell-free assay | 99% |
| EGFR (Homo sapiens, UniProt P00533) | cell-free assay | 100% |
| PRKCH (Homo sapiens, UniProt P24723) | cell-free assay | 100% |
| SGK3 (Homo sapiens, UniProt Q96BR1) | binding | 100% |
| DMPK (Homo sapiens, UniProt Q09013) | binding | 86% |
| DAPK2 (Homo sapiens, UniProt Q9UIK4) | binding | 100% |
| BTK (Homo sapiens, UniProt Q06187) | cell-free assay | 94% |
| PLK3 (Homo sapiens, UniProt Q9H4B4) | binding | 100% |
| SIK2 (Homo sapiens, UniProt Q9H0K1) | binding | 100% |
| WNK3 (Homo sapiens, UniProt Q9BYP7) | binding | 100% |
| MAP3K3 (Homo sapiens, UniProt Q99759) | binding | 98% |
| CDK8 (Homo sapiens, UniProt P49336) | binding | 100% |
| RET (Homo sapiens, UniProt P07949, V804L) | cell-free assay | 100% |
| TAOK2 (Homo sapiens, UniProt Q9UL54) | binding | 100% |

Excerpt of the above (study 4):
| target | observed | remaining binding |
| --- | --- | --- |
| COQ8B (Homo sapiens, UniProt Q96D53) | cell-free assay | 100% |
| FLT3 (Homo sapiens, UniProt P36888, D835V/ITD) | binding | 95% |
| PIM2 (Homo sapiens, UniProt Q9P1W9) | binding | 100% |
| STK35 (Homo sapiens, UniProt Q8TDR2) | binding | 100% |
| EPHB4 (Homo sapiens, UniProt P54760) | cell-free assay | 100% |
| CDK4 (Homo sapiens, UniProt P11802) | binding | 100% |
| PRKAA2 (Homo sapiens, UniProt P54646) | cell-free assay | 100% |
